{"data": "Measurements collected from several papers", "note": "A part holds a random share of what one study measured.", "chain of UniProt P15056 (whole entry, looked up)": "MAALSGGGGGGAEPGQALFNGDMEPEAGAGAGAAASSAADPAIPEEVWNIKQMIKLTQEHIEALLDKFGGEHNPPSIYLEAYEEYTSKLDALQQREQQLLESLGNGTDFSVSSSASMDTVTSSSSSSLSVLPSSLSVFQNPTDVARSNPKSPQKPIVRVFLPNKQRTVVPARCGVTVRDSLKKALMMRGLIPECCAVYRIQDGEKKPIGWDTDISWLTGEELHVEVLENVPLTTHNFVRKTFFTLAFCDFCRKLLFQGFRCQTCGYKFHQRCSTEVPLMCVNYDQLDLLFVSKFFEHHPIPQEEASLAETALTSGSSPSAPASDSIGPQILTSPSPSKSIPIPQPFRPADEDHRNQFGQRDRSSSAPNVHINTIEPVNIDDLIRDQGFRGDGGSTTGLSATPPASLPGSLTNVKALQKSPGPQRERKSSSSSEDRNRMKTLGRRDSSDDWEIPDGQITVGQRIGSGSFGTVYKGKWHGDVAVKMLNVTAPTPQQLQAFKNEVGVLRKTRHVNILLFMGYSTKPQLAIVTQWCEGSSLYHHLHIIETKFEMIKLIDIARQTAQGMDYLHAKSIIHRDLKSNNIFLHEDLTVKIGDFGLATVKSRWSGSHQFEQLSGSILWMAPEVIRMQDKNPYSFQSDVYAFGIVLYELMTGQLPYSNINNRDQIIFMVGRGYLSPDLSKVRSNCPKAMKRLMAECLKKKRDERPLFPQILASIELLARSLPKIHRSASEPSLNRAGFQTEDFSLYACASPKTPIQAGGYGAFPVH", "chain of UniProt Q8TF76 (whole entry, looked up)": "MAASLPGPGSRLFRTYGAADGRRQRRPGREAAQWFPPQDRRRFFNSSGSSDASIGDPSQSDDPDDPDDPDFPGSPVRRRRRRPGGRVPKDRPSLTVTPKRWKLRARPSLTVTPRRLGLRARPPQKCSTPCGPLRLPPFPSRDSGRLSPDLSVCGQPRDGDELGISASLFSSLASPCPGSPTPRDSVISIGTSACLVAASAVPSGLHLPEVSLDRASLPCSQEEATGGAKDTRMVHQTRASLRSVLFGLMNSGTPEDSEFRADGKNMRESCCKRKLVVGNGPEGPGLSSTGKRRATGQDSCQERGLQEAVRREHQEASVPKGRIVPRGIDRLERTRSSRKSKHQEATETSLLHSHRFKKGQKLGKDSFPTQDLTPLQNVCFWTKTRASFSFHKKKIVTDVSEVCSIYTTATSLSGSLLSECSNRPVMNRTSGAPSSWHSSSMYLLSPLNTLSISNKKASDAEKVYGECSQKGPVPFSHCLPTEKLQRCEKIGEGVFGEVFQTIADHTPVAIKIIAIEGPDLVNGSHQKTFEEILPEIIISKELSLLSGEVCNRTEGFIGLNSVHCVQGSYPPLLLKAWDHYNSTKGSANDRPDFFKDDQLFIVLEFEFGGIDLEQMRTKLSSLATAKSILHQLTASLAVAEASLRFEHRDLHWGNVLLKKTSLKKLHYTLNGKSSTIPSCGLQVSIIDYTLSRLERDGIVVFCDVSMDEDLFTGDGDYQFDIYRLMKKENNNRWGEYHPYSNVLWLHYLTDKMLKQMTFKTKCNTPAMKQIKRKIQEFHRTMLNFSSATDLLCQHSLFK", "chain of UniProt Q13882 (whole entry, looked up)": "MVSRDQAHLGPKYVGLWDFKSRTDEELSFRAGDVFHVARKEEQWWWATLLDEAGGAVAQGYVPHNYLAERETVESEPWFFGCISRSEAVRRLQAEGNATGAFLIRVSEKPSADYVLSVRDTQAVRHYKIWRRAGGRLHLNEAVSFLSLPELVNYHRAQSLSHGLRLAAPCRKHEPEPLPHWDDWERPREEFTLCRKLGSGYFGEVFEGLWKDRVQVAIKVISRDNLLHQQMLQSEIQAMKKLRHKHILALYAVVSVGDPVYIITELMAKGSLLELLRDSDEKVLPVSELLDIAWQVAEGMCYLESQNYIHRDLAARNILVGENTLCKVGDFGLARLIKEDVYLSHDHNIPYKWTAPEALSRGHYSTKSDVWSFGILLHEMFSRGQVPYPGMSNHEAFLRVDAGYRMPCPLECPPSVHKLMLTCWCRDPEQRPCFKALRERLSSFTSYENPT", "chain of UniProt Q9BXA7 (whole entry, looked up)": "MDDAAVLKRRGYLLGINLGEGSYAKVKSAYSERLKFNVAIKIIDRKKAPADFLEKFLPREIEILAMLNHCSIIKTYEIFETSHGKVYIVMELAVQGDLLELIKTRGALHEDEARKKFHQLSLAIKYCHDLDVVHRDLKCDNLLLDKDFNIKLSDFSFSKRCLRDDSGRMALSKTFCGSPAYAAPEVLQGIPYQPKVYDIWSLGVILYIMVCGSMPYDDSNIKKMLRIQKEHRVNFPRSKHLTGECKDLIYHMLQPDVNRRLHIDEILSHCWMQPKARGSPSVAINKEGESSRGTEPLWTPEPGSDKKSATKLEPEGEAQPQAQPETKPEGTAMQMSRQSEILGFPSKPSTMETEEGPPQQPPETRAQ", "chain of UniProt Q00534 (whole entry, looked up)": "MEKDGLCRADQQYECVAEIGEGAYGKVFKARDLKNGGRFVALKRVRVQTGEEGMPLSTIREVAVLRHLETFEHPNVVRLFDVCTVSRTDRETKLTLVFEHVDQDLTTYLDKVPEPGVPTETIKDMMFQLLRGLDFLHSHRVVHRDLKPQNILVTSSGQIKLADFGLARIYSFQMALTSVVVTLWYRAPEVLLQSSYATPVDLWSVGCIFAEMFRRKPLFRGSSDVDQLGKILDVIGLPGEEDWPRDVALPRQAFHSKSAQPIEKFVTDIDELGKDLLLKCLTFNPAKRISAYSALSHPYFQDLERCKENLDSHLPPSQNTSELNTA", "chain of UniProt Q13043 (whole entry, looked up)": "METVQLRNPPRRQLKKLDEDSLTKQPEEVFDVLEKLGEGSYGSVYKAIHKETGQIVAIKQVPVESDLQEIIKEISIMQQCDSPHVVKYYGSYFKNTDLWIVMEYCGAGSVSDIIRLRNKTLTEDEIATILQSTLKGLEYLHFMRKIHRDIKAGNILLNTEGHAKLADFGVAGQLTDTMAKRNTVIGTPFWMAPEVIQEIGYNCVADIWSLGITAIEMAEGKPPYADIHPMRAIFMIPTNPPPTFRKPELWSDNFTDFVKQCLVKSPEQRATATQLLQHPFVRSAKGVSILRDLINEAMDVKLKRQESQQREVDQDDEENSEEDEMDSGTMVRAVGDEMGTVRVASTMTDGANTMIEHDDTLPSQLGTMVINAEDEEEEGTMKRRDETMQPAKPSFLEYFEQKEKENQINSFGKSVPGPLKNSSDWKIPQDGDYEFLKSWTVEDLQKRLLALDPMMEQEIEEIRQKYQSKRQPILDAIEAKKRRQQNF", "chain of UniProt Q96GD4 (whole entry, looked up)": "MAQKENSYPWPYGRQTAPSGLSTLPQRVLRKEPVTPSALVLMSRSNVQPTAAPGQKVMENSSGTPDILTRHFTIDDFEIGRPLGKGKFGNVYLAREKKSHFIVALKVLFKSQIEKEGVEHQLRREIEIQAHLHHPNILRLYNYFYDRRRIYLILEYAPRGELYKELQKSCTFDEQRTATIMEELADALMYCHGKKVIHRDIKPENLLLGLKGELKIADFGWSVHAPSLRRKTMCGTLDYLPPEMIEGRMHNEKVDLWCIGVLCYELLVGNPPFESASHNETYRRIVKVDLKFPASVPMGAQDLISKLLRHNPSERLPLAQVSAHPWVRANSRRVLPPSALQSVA", "chain of UniProt P04629 (whole entry, looked up)": "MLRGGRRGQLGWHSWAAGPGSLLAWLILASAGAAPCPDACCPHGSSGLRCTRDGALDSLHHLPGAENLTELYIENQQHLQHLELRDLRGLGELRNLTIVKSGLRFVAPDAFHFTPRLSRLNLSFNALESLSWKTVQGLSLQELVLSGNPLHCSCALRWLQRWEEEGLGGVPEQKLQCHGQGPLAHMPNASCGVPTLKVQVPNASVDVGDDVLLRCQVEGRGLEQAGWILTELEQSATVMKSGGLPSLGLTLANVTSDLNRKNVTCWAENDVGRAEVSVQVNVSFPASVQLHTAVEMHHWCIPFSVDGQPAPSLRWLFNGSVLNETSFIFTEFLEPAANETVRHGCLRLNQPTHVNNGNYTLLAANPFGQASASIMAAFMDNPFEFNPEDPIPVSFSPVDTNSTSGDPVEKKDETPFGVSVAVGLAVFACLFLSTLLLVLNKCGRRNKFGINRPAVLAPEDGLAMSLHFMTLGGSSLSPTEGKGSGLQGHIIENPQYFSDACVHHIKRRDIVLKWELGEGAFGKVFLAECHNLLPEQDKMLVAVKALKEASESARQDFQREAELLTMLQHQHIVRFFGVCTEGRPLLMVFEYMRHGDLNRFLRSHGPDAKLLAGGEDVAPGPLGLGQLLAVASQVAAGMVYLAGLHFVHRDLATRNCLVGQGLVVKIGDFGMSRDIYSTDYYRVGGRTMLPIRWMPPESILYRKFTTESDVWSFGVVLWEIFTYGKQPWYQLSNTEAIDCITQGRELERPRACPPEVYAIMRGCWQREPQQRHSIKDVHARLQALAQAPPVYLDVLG", "chain of UniProt Q9UQM7 (whole entry, looked up)": "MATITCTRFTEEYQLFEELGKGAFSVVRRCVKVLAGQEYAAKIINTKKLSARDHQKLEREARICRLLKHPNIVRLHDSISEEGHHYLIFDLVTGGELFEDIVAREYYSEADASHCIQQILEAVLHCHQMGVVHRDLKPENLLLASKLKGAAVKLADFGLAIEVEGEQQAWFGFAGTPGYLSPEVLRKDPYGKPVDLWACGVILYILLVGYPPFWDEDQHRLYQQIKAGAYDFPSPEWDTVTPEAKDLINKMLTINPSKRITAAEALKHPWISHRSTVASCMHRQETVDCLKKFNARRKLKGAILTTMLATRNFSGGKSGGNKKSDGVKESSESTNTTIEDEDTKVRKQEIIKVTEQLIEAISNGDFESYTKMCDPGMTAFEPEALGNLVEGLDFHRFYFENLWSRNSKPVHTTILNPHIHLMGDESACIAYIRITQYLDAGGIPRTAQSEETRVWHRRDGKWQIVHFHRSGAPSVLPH"}
{"data": "Series 1", "target": "vesicular stomatitis virus glycoprotein", "observed": "viral entry", "technique": "VSVΔG-G pseudovirus", "tested at": "10 µM"}
{"SMILES": "N#CC(C#N)=NNc1ccc2c(c1)OCCO2", "inhibition [%]": -21}
{"SMILES": "COc1ccc(N2CCN(C(=O)c3nc(S(C)(=O)=O)ncc3Cl)CC2)cc1", "inhibition [%]": 33}
{"SMILES": "Cc1ccc(/C(C#N)=C2\\C=CC(=NO)C(Cl)=C2)cc1", "inhibition [%]": -4}
{"SMILES": "Oc1ccc(CN2CCN(c3cccc(C(F)(F)F)c3)CC2)c2cccnc12", "inhibition [%]": 22}
{"SMILES": "O=C(NC1CCN(Cc2ccccc2)CC1)c1cc2c(=O)n(Cc3ccccc3)ccc2s1", "inhibition [%]": 35}
{"SMILES": "CC(C)CC1(C)NC(=O)N(Cc2cc([N+](=O)[O-])cc3c2OCOC3)C1=O (stereo not drawn)", "inhibition [%]": -2}
{"SMILES": "CCCCc1ccc(Nc2cc(C)nc(-n3nc(C)cc3C)n2)cc1", "inhibition [%]": 34}
{"SMILES": "c1ccc(-c2cnc3ccccc3c2)c(OCCn2ccnc2)c1", "inhibition [%]": 1.4}
{"data": "Series 2", "target": "Diamine acetyltransferase 1 (Homo sapiens, UniProt P21673)", "mode": "inhibitor", "tested at": "10 µM", "baseline": "control", "Construct (P21673 1-171)": "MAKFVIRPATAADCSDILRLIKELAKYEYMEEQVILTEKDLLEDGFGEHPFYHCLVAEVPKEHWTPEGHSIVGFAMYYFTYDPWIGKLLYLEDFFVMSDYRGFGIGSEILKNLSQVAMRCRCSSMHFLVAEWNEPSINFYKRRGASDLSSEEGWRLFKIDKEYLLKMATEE"}
{"Structure (SMILES)": "CCCCCc1cc(O)c(C/C=C(\\C)CCC=C(C)C)c(O)c1", "remaining activity": "91.4%"}
{"Structure (SMILES)": "CC1=C2C[C@H]3[C@@H](CC=C4C[C@@H](O)CC[C@@]43C)[C@@H]2CC[C@]12O[C@@H]1C[C@H](C)CN[C@H]1[C@H]2C", "remaining activity": "92.2%"}
{"Structure (SMILES)": "O=C(O)[C@@H]1CCN1", "remaining activity": "95.6%"}
{"data": "Series 3", "Structure (SMILES)": "COc1ccc2c(c1)/C(=C/c1cnc[nH]1)C(=O)N2", "observed": "enzyme activity", "mode": "inhibitor", "tested at": "0.5 µM", "baseline": "control"}
{"target": "CAMK2A (Homo sapiens, UniProt Q9UQM7)", "remaining activity [%]": 86.6}
{"target": "ZAP70 (Homo sapiens, UniProt P43403)", "remaining activity [%]": 92.8}
{"target": "TTK (Homo sapiens, UniProt P33981)", "remaining activity [%]": 59.9}
{"target": "PDGFRA (Homo sapiens, UniProt P16234)", "remaining activity [%]": 94.9}
{"target": "Aurora kinase B (AURKB, Homo sapiens, UniProt Q96GD4)", "remaining activity [%]": 40}
{"target": "SYK (Homo sapiens, UniProt P43405)", "remaining activity [%]": 93.9}
{"target": "BRAF (Homo sapiens, UniProt P15056)", "remaining activity [%]": 98.4}
{"target": "STK4 (Homo sapiens, UniProt Q13043)", "remaining activity [%]": 5.67}
{"target": "TSSK1B (Homo sapiens, UniProt Q9BXA7)", "remaining activity [%]": 101}
{"target": "SRPK2 (Homo sapiens, UniProt P78362)", "remaining activity [%]": 101}
{"target": "MAP3K7 (Homo sapiens, UniProt O43318)", "remaining activity [%]": 63.7}
{"target": "PIM3 (Homo sapiens, UniProt Q86V86)", "remaining activity [%]": 99}
{"target": "STK3 (Homo sapiens, UniProt Q13188)", "remaining activity [%]": 12.2}
{"target": "NTRK1 (Homo sapiens, UniProt P04629)", "remaining activity [%]": 61.4}
{"target": "Cyclin-dependent kinase 6, with cyclin D1 (CDK6, Homo sapiens, UniProt Q00534)", "remaining activity [%]": 13.3}
{"target": "HASPIN (Homo sapiens, UniProt Q8TF76)", "remaining activity [%]": 72.2}
{"target": "PTK6 (Homo sapiens, UniProt Q13882)", "remaining activity [%]": 87.7}
{"target": "CHUK (Homo sapiens, UniProt O15111)", "remaining activity [%]": 110}
{"target": "PTK2 (Homo sapiens, UniProt Q05397)", "remaining activity [%]": 87.9}
{"data": "Series 4", "cell line": "mouse MPNST tumor cells", "technique": "high-content immunofluorescence imaging", "refers to": "nuclear SOX9", "tested at": "10 µM", "time": "12 h", "notes": "mean of 2 replicates", "baseline": "DMSO control", "direction": "higher = more nuclear SOX9"}
{"SMILES": "Cn1ncnc1COc1nn2c(-c3c(F)cccc3F)nnc2cc1C1CCC1", "nuclear SOX9 intensity": "105 % of DMSO"}
{"SMILES": "COC[C@@H](NC(C)=O)C(=O)NCc1ccccc1", "nuclear SOX9 intensity": "110 % of DMSO"}
{"SMILES": "O=C1Nc2ccccc2C2(CCN(CCc3ccc(C(F)(F)F)cc3)CC2)O1", "nuclear SOX9 intensity": "146 % of DMSO"}
{"SMILES": "COc1cc(C(=O)N2CC[C@@H](O)[C@@H](N)C2)cc2nc(-c3cc4ccccc4n3CC3CC3)n(C)c12", "nuclear SOX9 intensity": "182 % of DMSO"}
{"SMILES": "O=S(=O)(c1ccccc1F)N1CCOc2c(N3CCNCC3)cccc21", "nuclear SOX9 intensity": "124 % of DMSO"}
{"SMILES": "CC(C)N(CCC(C(N)=O)(c1ccccc1)c1ccccn1)C(C)C (stereo not drawn)", "nuclear SOX9 intensity": "116 % of DMSO"}
{"data": "Series 5", "cell line": "A-375", "tested at": "100 µM", "time": "18 h"}
{"SMILES": "C[C@]12CCC(=O)C=C1CC[C@@H]1[C@@H]2CC[C@@]2(C)[C@H]1CC[C@]2(C)O", "viability": "66.8%"}
{"SMILES": "COc1ccc(C(CN(C)C)C2(O)CCCCC2)cc1 (stereo not drawn)", "viability": "84%"}
{"SMILES": "Oc1cccc2cccnc12", "viability": "73.1%"}
{"SMILES": "NC(=O)C[S+]([O-])C(c1ccccc1)c1ccccc1 (stereo not drawn)", "viability": "90.2%"}
{"SMILES": "C[C@]12CC[C@H]3[C@@H](CC[C@@]45O[C@@H]4C(O)=C(C#N)C[C@]35C)[C@@H]1CC[C@@H]2O", "viability": "68.2%"}
{"SMILES": "COc1ccc(CN2CCNCC2)c(OC)c1OC", "viability": "90.8%"}
{"note": "Repeated from above (series 3):"}
{"target": "CAMK2A (Homo sapiens, UniProt Q9UQM7)", "remaining activity [%]": 86.6}
{"target": "ZAP70 (Homo sapiens, UniProt P43403)", "remaining activity [%]": 92.8}
{"target": "TTK (Homo sapiens, UniProt P33981)", "remaining activity [%]": 59.9}
{"target": "PDGFRA (Homo sapiens, UniProt P16234)", "remaining activity [%]": 94.9}
